Assay results gathered from unrelated publications.
Each numbered part is a random draw from the data of one study; scales do not carry over between parts. Changes are numbered by the printed parent chain.

Study 1
Target: RING finger protein unkempt homolog, zinc fingers 1-6, GST-SBP tag (UNK, Homo sapiens, UniProt Q9C0B0, residues 30-357)
Sequence of UniProt Q9C0B0 (30-357, looked up): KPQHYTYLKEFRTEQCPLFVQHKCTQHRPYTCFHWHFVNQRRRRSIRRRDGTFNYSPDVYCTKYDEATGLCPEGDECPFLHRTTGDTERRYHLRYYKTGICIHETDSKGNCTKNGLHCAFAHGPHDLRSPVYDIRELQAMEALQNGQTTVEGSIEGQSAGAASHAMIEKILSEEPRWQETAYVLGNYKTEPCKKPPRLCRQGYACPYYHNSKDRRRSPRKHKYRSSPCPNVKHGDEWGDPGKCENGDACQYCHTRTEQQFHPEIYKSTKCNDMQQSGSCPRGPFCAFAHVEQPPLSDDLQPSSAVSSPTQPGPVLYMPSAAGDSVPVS
Method: RNA Bind-n-Seq
Molecule type: RNA
Medium: in vitro
Concentration: not given
Setting: RNA with constant flanks, human-mouse chimeric sites, ends assumed
Relative to: input RNA pool
Reading: higher = stronger binding
Shared flanks, not repeated: GGGAGUUCUACAGUCCGACGAUC … CAACAGAGGAUUGAGCAUCA
Oligonucleotide | bound/input enrichment [ratio]
GUAGCUGGCCAUUAGGAAAUGCUGGUAGUGCUCCGGCCUUGCUGAUGACUUCUGAUGUCCCAGCAAAUGUUGGCAUUGUUGACUGCUGAGAAGAUACUUCUGAGGACCCACGUCUAAGGU | 0.103
GGCCUGGGACCGUCCUGGGCUAGUACAAAUAGCGGCAGUGGAGGCUCGAGAGGAAAGUUUGUUAGUGAGGCAGUGGUAGAGGUCGUCCAUGUACGGUCCUUUACUCGAUAGAUGUGUUCU | 0.853
ACCUCCCCCUCCCGCCUGCUUUUUGAACCGCUUUUUGGAAAGUUUUUGGCGUUUCUUUUCCUUCCCCAUACAAAGUGAUUACAGUUUCCCCCGCAAGGGUCUAUCGAUUCACCCUUCGGA | 0.478
CAUGUAUCUGCAGUACUUGAUGUGGACUACUCUCCCACUGGGAAGGAAUUUGUGUCUGCCAGCUUUGAUAAGUCUAUUAGAAUCUUUCCUGUAGACAAGAGCCGAAGCAGGGAAGUGUAU | 0.612
ACUCAGAGAUCCACCUCCCAAAGUGCUCUGGAGCUCUGUGUGGCCACCACACCUAACUUGAUGGAUAUAUAUUUUUUCUCUUUUAUGUCUUCCUGUUCGUCCAGGGAAGAAAGAUUUGUU | 1.28
UGUGCAUAUGAUGCUUGGAGAUGGUUUUGCAAAAGCAGAAAUCGCUGCAAGGUAAUCACAAUAGAUAAAAGUGGUAUUUUAAACCUUUGAAAUAAAUGGAUGUAACUGUACCUUGGUACA | 0.745
UCAUUUUUCUCUUUUCUUUCUUUCCUUAAAAGCCUAACUAAAGAUUAGGUUGUAAGAAAAACAGAAGCCAUGUUUCGAAGACCUGUAUUACAGGUAUUUCGUCAGUUUGUAAGACAUGAG | 0.151
UCUUAACUUAUUCAUUUAACUUAUUUUUAUAGCUAGAGCAAUAUUGUUAGUCUUAGACAAUAGCUCACAUUUUUUGAAAAGCAUGCUCUCCCUGUCCAUUUGUCUUAUAACAUGACCCAG | 286
CACUCGAGGGCUGCCGUUUUCUGUUUCUCCCUGGGCUGCGGAAAGCCAGAAGAUUUUAUCUAGCUUAAACCAGGCUGCUGGUGUUCCCUCUUUUUUUCCACGAGGGUGUUUUUGGCUGCA | 0.308
CAGCCUCAGAGCCCAGACUUCCUGGAUAUCACCAACCCUAAAGCGGUAUUAGAAAAUGCAUUGAGAAACUUCGCCUGUCUGACGACUGGAGAUGUGAUUGCUAUCAACUACAAUGAGAAG | 0.646
UCGGAUGCUGUGCUGGGUCACUUUUCAUAUCCUGAUCCUUCACAGUGGACAGAUGAAGAACUGGGAAUCCCUCCUGAUGACGAGGACUGAAGGUGUAAACUCUCUGGACGAGUAGGAGCA | 0.477

Study 2
Target: CEBPA, bZIP domain (human)
Method: DHFR protein complementation
Medium: yeast
Setting: single substitutions, most at no-binding floor
Relative to: wild-type JUN-FOS pair
Reading: higher = stronger binding
Parent: JUN, bZIP domain (human); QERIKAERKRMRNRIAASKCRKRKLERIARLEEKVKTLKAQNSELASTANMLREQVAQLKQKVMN; partner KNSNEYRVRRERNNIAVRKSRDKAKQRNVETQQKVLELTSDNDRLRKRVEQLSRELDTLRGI
Substitution | binding fitness
A57R | -1.27 natural log
E32K | -1.39 natural log
I28D | -1.36 natural log
L45D | -1.5 natural log
A40K | -1.29 natural log
Q55S | -1.43 natural log
A57K | -1.48 natural log
T37A | -1.34 natural log
E33L | -1.47 natural log
S47M | -1.32 natural log
A40C | -1.48 natural log
T48Q | -1.38 natural log

Study 3
Target: CCNE2, cyclin fold, Cln2 fusion (human)
Method: yeast growth competition, sequencing
Medium: yeast
Setting: strong parent motif
Relative to: not given
Reading: higher = stronger binding
Parent: GMNC docking peptide (human); KNAKRNLSSEFAN
Substitution | normalised enrichment score
KNAKRNLSAEFAN [S9A] | 1.62
KNAKRNLSSMFAN [E10M] | 1.29
KNNKRNLSSEFAN [A3N] | -0.00851
KNAKRKLSSEFAN [N6K] | 0.243
KNAKRCLSSEFAN [N6C] | 0.266
KNGKRNLSSEFAN [A3G] | 0.736
KNIKRNLSSEFAN [A3I] | 0.926
KQAKRNLSSEFAN [N2Q] | 1.23
KNSKRNLSSEFAN [A3S] | 0.332
KNAKRNLSSEDAN [F11D] | 0.738

Further values, each from its own experiment
Substance | target | test | test system | setting | scale | measurement | value
PhoQ, residues 284 288 289 292 302 303 ASSHFY | PhoP, residues 12 14 15 18 19 STHWV (Escherichia coli, UniProt P23836) | Sort-seq, measured: YFP reporter | E. coli | PhoQ-PhoP variant library, with: 10 µM Mg2+ | relative to: high Mg2+ state, higher = stronger signaling | fold induction | 39.7

A few entries again (study 1):
Oligonucleotide | bound/input enrichment [ratio]
CACUCGAGGGCUGCCGUUUUCUGUUUCUCCCUGGGCUGCGGAAAGCCAGAAGAUUUUAUCUAGCUUAAACCAGGCUGCUGGUGUUCCCUCUUUUUUUCCACGAGGGUGUUUUUGGCUGCA | 0.308
ACUCAGAGAUCCACCUCCCAAAGUGCUCUGGAGCUCUGUGUGGCCACCACACCUAACUUGAUGGAUAUAUAUUUUUUCUCUUUUAUGUCUUCCUGUUCGUCCAGGGAAGAAAGAUUUGUU | 1.28
UCAUUUUUCUCUUUUCUUUCUUUCCUUAAAAGCCUAACUAAAGAUUAGGUUGUAAGAAAAACAGAAGCCAUGUUUCGAAGACCUGUAUUACAGGUAUUUCGUCAGUUUGUAAGACAUGAG | 0.151
UCUUAACUUAUUCAUUUAACUUAUUUUUAUAGCUAGAGCAAUAUUGUUAGUCUUAGACAAUAGCUCACAUUUUUUGAAAAGCAUGCUCUCCCUGUCCAUUUGUCUUAUAACAUGACCCAG | 286
